Measurements from different studies.
Compare with care: the assays were run in different laboratories.

Structure (SMILES)	target or system	assay	system	conditions	endpoint	result
CC1=C(C#N)[C@@H](c2ccc(C#N)cc2S(C)(=O)=O)N(C)C(=O)N1c1cccc(C(F)(F)F)c1	trypsin	–	–	–	IC50	> 30 µM
O=C(c1ccc(OCCN2CCCCC2)cc1)c1c(-c2ccc(O)cc2)sc2cc(O)ccc12	Toxoplasma gondii	parasite growth	HFF, bradyzoite, glutamine-induced	–	EC50	8.67 µM
COc1ccc(C/C=C/c2ccc(O)c(OC)c2)cc1	STAT3	reporter gene, inhibitor	NCI-H460	–	IC50	1.95 µg/mL
Cc1cnn(Cc2ccc(Cn3cc(C(=O)NCc4ccc(CN)cc4)cn3)cc2)c1	trypsin	–	–	–	IC50	27 µM
Cc1cc(CN)cc(C)c1NC(=O)c1ccc(-c2cc(Cl)ccc2Cl)o1	Toxoplasma gondii	parasite growth	HFF, bradyzoite, glutamine-induced	–	EC50	11 µM
C(/Cc1ccc(OCc2ccccc2)cc1)=C(\COCc1ccccc1)c1ccc(OCc2ccccc2)cc1	STAT3	reporter gene, inhibitor	NCI-H460	–	IC50	4.25 µg/mL
NCc1ccc(CNC(=O)c2cnn(Cc3ccc(Cn4ccccc4=O)cc3)c2)cc1	trypsin	–	–	–	IC50	27 µM
CN1CCN(CCNCc2cc3cc(Br)ccc3nc2SCc2ccccc2)CC1	Pseudomonas aeruginosa electron transport chain	ACMA quenching	inverted membrane vesicles	with: NADH	IC50	4.1 µg/mL
OC/C(=C/Cc1ccc(O)cc1)c1ccc(O)cc1	STAT3	reporter gene, inhibitor	NCI-H460	–	IC50	4.93 µg/mL
COc1cccc(CNC(=O)c2cn(Cc3ccc(Cn4ccccc4=O)cc3)nc2C2CC2)c1F	trypsin	–	–	–	IC50	> 40 µM
Oc1ccc(C/C=C(/COCc2ccccc2)c2ccc(OCc3ccccc3)cc2)cc1	STAT3	reporter gene, inhibitor	NCI-H460	–	IC50	2.64 µg/mL
CCN(Cc1c(F)cccc1Cl)c1c([N+](=O)[O-])cc(C(F)(F)F)cc1[N+](=O)[O-]	anti-BL mouse monoclonal antibody	binding, indirect competitive ELISA	–	pH 7.4, 1% methanol	IC50	> 1 µg/mL
C[C@H]1[C@H](OC(=O)CCC(=O)O)O[C@@H]2O[C@@]3(C)CC[C@H]4[C@H](C)CC[C@@H]1[C@@]24OO3	β-hematin formation	detergent-based	–	–	IC50	inactive
COc1ccnc(CNC(=O)c2cnn(Cc3ccc(Cn4ccccc4=O)cc3)c2)c1F	trypsin	–	–	–	IC50	> 40 µM
Brc1ccc2nc(SCc3ccccc3)c(CNCCC3CCN(C4CCCC4)CC3)cc2c1	Pseudomonas aeruginosa electron transport chain	ACMA quenching	inverted membrane vesicles	with: NADH	IC50	3.2 µg/mL
